Measured values of several laboratories.
Every numbered part comes from another study and shows a few of its results, in no order. Values joined by “and” are separate records of one study, mostly repeats; a detail may differ.
UniProt P10721, sequence (whole entry, unmodified, looked up): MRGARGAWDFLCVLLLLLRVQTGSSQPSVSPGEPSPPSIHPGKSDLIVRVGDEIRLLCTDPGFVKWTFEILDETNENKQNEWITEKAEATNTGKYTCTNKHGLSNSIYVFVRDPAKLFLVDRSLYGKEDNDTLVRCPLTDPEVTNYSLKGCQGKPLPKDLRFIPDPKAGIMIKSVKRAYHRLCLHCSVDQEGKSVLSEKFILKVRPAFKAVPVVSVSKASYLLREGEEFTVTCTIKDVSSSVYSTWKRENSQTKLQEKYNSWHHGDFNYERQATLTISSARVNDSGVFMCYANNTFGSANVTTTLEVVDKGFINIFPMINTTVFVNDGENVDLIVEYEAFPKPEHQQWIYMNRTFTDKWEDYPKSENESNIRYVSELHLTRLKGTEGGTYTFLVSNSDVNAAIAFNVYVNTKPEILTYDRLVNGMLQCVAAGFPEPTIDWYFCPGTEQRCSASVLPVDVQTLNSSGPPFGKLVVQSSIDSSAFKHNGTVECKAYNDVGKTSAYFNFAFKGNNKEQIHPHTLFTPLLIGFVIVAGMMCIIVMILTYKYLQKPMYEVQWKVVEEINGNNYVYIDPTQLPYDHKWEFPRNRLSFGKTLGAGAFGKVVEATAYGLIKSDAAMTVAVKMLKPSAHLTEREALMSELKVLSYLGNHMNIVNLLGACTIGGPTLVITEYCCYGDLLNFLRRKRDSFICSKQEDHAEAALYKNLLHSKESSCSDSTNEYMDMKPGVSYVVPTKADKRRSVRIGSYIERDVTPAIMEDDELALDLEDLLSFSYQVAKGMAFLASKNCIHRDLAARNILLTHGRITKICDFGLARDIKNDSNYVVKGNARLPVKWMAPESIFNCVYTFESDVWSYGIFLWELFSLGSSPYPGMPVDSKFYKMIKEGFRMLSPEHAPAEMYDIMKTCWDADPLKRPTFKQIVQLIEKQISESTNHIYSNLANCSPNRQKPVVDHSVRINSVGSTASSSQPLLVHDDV
UniProt P31749, sequence (whole entry, looked up): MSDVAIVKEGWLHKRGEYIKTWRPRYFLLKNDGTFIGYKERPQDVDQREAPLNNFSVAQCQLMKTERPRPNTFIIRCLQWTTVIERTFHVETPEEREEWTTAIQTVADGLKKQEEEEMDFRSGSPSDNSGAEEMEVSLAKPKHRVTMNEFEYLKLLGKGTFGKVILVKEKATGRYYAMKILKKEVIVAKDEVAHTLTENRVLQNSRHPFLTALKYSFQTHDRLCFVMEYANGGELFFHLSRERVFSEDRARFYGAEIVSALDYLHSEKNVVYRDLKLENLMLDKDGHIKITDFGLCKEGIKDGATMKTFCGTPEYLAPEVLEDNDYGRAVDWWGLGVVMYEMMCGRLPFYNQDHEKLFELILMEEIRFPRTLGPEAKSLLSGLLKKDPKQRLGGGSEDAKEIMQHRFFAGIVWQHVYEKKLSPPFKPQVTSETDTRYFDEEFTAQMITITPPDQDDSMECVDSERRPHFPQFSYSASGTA
UniProt P48729, sequence (whole entry, looked up): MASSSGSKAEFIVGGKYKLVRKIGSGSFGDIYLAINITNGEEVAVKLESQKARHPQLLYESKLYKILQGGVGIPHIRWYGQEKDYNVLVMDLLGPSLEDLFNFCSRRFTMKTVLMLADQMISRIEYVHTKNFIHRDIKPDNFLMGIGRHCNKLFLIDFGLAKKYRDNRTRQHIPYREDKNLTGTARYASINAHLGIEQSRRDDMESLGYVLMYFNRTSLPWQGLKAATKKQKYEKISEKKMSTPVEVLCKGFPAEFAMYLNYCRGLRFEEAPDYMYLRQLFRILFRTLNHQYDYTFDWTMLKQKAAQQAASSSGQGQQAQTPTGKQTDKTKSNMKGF
UniProt P78362, sequence (whole entry, looked up): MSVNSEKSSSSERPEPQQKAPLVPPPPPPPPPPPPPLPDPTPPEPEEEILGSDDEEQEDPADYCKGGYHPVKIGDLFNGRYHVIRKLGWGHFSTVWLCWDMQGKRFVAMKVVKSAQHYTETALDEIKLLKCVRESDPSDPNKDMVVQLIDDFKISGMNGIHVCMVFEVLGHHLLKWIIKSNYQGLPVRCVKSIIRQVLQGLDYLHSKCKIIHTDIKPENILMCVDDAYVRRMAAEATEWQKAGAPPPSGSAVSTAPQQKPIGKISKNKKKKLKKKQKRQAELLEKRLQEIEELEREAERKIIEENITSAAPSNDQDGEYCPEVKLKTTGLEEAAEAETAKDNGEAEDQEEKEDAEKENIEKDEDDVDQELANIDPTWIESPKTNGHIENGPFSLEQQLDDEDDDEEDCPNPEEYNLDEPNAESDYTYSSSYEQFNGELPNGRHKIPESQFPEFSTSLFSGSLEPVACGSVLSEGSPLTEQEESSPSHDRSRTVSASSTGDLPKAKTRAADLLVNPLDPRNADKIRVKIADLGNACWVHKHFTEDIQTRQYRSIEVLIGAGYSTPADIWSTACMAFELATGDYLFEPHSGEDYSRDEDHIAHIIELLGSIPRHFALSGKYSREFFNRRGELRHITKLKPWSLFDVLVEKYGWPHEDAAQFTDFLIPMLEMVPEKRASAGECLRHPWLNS

Set 1
SMILES: CC(C)n1cnc(-c2ccc(F)cc2)c1-c1ncc(C(=O)Nc2ccc(N3CCN(C)CC3)cc2)[nH]1
Method: phase 2a trial
system	conditions	patients with TEAE
idiopathic pulmonary fibrosis patients	oral, dose not given, ESR increased, grade 4, all arms	0%
patients with idiopathic pulmonary fibrosis	60 mg once daily, free thyroxine decreased, grade 4	0%
patients with idiopathic pulmonary fibrosis	60 mg once daily, renal and urinary disorders SOC, grade 2	0%
idiopathic pulmonary fibrosis patients	oral, 30 mg once daily, CK-MB increased, grade 3	0%
idiopathic pulmonary fibrosis patients	oral, 30 mg once daily, disc protrusion, grade 5	0%
idiopathic pulmonary fibrosis patients	oral, 30 mg once daily, GLDH increased, grade 5	0%

Set 2
SMILES: CC(=O)Nc1c(C(C)=O)c(=O)n(C)c2nc(-c3ccc(Cl)cc3Cl)c(-c3ccc(Cl)cc3)cc12
Observed: cell-free assay
Method: competition with immobilised ligand
Tested at: 1 µM
target	remaining binding [%]
BMX (Homo sapiens, UniProt P51813)	100
STK38 (Homo sapiens, UniProt Q15208)	93
CLK1 (Homo sapiens, UniProt P49759)	100
Tyrosine-protein kinase ABL1, phosphorylated (ABL1, Homo sapiens, UniProt P00519, Q252H)	72
CSNK1A1 (Homo sapiens, UniProt P48729)	100
PRKG1 (Homo sapiens, UniProt Q13976)	100
PLK2 (Homo sapiens, UniProt Q9NYY3)	100
DCLK3 (Homo sapiens, UniProt Q9C098)	100
CIT (Homo sapiens, UniProt O14578)	100
MAP2K7 (Homo sapiens, UniProt O14733)	100
PIK3CA (Homo sapiens, UniProt P42336, H1047Y)	100
Ribosomal protein S6 kinase alpha-4, C-terminal kinase domain (RPS6KA4, Homo sapiens, UniProt O75676)	100
NEK11 (Homo sapiens, UniProt Q8NG66)	100
PAK2 (Homo sapiens, UniProt Q13177)	100
EGFR (Homo sapiens, UniProt P00533, L861Q)	100
KIT (Homo sapiens, UniProt P10721, A829P)	100
Tyrosine-protein kinase ABL1, non-phosphorylated (ABL1, Homo sapiens, UniProt P00519, H396P)	100
Ribosomal protein S6 kinase alpha-2, C-terminal kinase domain (RPS6KA2, Homo sapiens, UniProt Q15349)	100
CAMK2A (Homo sapiens, UniProt Q9UQM7)	100
Tyrosine-protein kinase ABL1, non-phosphorylated (ABL1, Homo sapiens, UniProt P00519)	85
DYRK1A (Homo sapiens, UniProt Q13627)	100
SRPK2 (Homo sapiens, UniProt P78362)	100
TNK1 (Homo sapiens, UniProt Q13470)	100
KIT (Homo sapiens, UniProt P10721, T670I/V559D)	100
AKT1 (Homo sapiens, UniProt P31749)	100

Set 3
Species: human
Medium: microsomes or S9
Tested at: 2 µM
Time: 0.5 h
SMILES	remaining compound
CNC(=O)COc1cccc2c1[C@@H]1O[C@H](C)CC[C@H]1[C@](C)(CCCC(C)C)O2	> 100%
O=C(NCc1cc2n(n1)CCNC2)c1cccc(OCc2cccc(F)c2)c1	64.6%
CC(=O)Nc1ccc(-n2nnc(C(=O)NCCCN(C)C)c2N)cc1	72.4%
CN1CC[C@H](OC(=O)C2(c3ccc(F)cc3)CCCC2)C1	84.8%
COc1cc(-c2coc3cc(O)c(OC)c(O)c3c2=O)cc(O)c1OC	66.4%
OC1CCCC1Oc1cc(-n2nc3c(c2Cl)CCCC3)c(F)cc1Cl (centres unmarked)	18.2%

Set 4
Organism: Sarcocystis neurona
Observed: parasite growth
Tested at: concentration not given
Setting: first screen
Relative to: untreated
Structure (SMILES)	log2 fold change
CN(CCOc1ccc(CC2SC(=O)NC2=O)cc1)c1ccccn1.Cl (centres unmarked)	0.14
Nc1nc(Cl)nc2c1ncn2[C@@H]1O[C@H](CO)[C@@H](O)[C@H]1O	0.04
CC1=C(C(=O)O)N2C(=O)[C@@H](NC(=O)[C@H](N)c3ccccc3)[C@H]2SC1.O	-0.0334
Cl.NC(N)=NC(=O)c1nc(Cl)c(N)nc1N.O	0.19
Cl.O.O=C1N(c2ccccc2)c2ccccc2C1(Cc1ccncc1)Cc1ccncc1	0.09
COc1cc(OC)c(C(=O)CCCN2CCCC2)c(OC)c1.Cl	-0.1
CC(C)NCC(O)c1ccc(O)c(O)c1.Cl (centres unmarked)	0.17

Set 5
Structure (SMILES): COc1ccc2[nH]c3c4[nH]c5ccc(OC)cc5c4c4c(c3c2c1)C(=O)NC4=O
Tested at: 1 µM
target	test	remaining binding [%]
Tyrosine-protein kinase JAK1, JH1 (JAK1, Homo sapiens, UniProt P23458)	cell-free assay, competition with immobilised ligand	100
EPHA4 (Homo sapiens, UniProt P54764)	binding, competition with immobilised ligand	86
CSNK1G2 (Homo sapiens, UniProt P78368)	binding	86
EGFR (Homo sapiens, UniProt P00533, G719S)	binding	57
ERN1 (Homo sapiens, UniProt O75460)	binding	93
TAOK3 (Homo sapiens, UniProt Q9H2K8)	binding, competition with immobilised ligand	96
MKNK2 (Homo sapiens, UniProt Q9HBH9)	binding, competition with immobilised ligand	54

Set 6
Target: DNA polymerase theta, ATPase domain (POLQ, Homo sapiens, UniProt O75417)
UniProt O75417, sequence (whole entry, unmodified, looked up): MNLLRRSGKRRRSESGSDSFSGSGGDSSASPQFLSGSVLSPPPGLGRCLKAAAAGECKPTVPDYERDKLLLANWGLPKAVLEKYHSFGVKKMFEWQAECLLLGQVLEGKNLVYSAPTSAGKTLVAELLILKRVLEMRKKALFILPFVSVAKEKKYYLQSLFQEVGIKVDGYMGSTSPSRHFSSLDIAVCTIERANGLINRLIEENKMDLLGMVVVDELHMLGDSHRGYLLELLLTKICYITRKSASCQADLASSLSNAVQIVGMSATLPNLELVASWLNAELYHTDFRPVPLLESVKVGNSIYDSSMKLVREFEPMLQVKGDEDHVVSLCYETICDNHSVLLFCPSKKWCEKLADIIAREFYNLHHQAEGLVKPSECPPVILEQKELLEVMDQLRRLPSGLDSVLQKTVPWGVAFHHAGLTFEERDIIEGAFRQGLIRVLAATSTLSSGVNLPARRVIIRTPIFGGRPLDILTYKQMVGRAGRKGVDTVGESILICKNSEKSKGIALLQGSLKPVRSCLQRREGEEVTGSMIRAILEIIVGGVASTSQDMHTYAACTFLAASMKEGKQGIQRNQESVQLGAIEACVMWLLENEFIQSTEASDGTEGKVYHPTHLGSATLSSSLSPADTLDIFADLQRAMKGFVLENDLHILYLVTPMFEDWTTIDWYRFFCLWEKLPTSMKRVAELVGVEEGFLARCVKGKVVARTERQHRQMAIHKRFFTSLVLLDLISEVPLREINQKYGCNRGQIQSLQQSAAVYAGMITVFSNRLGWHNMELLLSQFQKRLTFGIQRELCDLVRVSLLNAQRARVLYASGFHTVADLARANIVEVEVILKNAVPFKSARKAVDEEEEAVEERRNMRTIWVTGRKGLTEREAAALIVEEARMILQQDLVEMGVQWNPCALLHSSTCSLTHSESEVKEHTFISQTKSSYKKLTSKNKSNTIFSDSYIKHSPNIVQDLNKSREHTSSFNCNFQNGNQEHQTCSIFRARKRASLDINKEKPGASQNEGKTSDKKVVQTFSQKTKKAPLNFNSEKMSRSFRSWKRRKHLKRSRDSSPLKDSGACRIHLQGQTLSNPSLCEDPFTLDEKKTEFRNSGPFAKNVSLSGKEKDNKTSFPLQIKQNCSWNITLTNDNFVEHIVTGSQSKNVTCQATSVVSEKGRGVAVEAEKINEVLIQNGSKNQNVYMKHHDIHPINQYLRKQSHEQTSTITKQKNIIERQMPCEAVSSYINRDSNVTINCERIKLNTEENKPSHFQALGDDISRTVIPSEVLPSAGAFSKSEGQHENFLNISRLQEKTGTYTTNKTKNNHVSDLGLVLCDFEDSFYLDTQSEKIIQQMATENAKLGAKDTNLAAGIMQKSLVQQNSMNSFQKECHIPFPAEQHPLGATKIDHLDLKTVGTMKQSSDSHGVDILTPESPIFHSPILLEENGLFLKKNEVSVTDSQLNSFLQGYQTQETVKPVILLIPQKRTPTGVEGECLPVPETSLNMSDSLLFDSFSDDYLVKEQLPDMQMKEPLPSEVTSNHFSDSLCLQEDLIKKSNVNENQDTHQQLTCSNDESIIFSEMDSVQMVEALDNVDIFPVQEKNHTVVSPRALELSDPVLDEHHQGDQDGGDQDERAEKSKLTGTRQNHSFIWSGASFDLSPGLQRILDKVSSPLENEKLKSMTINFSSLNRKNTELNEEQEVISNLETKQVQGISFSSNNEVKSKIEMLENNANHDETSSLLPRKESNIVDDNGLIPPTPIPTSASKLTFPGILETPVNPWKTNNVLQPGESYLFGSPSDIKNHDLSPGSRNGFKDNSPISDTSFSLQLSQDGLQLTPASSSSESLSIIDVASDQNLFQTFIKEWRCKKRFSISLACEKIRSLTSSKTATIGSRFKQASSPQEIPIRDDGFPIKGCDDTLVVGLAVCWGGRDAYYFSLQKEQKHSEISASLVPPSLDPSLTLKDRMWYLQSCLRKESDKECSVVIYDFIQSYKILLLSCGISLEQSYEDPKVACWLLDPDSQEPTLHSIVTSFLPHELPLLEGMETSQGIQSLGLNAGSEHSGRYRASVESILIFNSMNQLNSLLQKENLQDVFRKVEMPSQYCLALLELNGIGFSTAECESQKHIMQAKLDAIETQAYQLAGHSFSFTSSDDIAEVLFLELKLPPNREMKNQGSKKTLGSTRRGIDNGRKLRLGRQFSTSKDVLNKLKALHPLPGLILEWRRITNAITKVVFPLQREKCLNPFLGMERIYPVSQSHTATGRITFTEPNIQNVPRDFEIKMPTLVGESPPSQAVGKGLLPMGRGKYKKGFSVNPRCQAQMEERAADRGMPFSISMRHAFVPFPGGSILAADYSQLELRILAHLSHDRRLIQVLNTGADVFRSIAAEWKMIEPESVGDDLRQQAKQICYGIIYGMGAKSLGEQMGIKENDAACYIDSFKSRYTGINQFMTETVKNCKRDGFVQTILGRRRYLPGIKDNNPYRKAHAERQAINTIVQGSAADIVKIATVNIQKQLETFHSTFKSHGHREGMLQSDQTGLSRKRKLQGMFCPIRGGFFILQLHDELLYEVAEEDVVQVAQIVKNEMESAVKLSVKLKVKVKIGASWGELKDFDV
Observed: enzyme activity
Action: inhibitor
Tested at: 77 µM
Relative to: untreated
SMILES	remaining activity
Cn1ccc2cc3c(cc21)CCN3C(=O)Nc1cccnc1	100%
CCOC(=O)OC(C)OC1=C(C(=O)Nc2ccccn2)N(C)S(=O)(=O)c2ccccc21 (centres unmarked)	95.1%
N=C(N)NC(=N)N1CCOCC1	96.5%
CC(=O)OCC(=O)NCCCOc1cccc(CN2CCCCC2)c1	95.5% and 102%
Cc1ccc(-n2nc(C(C)(C)C)cc2NC(=O)Nc2ccc(OCCN3CCOCC3)c3ccccc23)cc1	98.2%

Some of these lines once more (set 3):
SMILES	remaining compound
CNC(=O)COc1cccc2c1[C@@H]1O[C@H](C)CC[C@H]1[C@](C)(CCCC(C)C)O2	> 100%
OC1CCCC1Oc1cc(-n2nc3c(c2Cl)CCCC3)c(F)cc1Cl (centres unmarked)	18.2%
CC(=O)Nc1ccc(-n2nnc(C(=O)NCCCN(C)C)c2N)cc1	72.4%
CN1CC[C@H](OC(=O)C2(c3ccc(F)cc3)CCCC2)C1	84.8%
O=C(NCc1cc2n(n1)CCNC2)c1cccc(OCc2cccc(F)c2)c1	64.6%
COc1cc(-c2coc3cc(O)c(OC)c(O)c3c2=O)cc(O)c1OC	66.4%
